{"data": "Assay results of several laboratories", "note": "Parts stem from different laboratories: compare values within a part only. Changes are numbered by the printed parent chain.", "chain of UniProt P41145 (whole entry, looked up)": "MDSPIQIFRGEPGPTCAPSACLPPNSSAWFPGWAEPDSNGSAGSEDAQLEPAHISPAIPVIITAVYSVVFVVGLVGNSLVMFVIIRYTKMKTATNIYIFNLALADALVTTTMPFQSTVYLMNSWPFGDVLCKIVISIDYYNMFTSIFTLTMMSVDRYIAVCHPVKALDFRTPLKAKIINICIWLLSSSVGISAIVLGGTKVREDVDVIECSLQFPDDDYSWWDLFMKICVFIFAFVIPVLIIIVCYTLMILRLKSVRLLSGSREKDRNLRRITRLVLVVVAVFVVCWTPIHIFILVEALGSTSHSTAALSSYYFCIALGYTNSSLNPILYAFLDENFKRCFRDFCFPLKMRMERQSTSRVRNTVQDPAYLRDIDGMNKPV"}
{"data": "Sample 1", "target": "CCNB2, cyclin fold, Cln2 fusion (human)", "method": "yeast growth competition, sequencing", "medium": "yeast", "setting": "strong parent motif", "reference": "not given", "direction": "higher = stronger binding", "parent": "viral docking peptide; TSVRRALFTGGSD; partner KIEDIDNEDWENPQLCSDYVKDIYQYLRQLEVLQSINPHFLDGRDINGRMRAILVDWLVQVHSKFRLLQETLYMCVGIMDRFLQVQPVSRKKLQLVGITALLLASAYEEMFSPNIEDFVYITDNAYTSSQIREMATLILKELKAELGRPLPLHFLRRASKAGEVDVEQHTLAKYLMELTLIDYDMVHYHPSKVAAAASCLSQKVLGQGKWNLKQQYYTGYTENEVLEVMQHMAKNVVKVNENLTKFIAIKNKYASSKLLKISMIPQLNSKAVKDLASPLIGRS"}
{"Variant": "TSVVRALFTGGSD [R4V]", "normalised enrichment score": 0.101}
{"Variant": "TSMRRALFTGGSD [V3M]", "normalised enrichment score": 0.399}
{"Variant": "TSVRRALFTGQSD [G11Q]", "normalised enrichment score": 0.837}
{"Variant": "TSDRRALFTGGSD [V3D]", "normalised enrichment score": -0.128}
{"Variant": "TSGRRALFTGGSD [V3G]", "normalised enrichment score": -0.0335}
{"Variant": "TPVRRALFTGGSD [S2P]", "normalised enrichment score": 0.793}
{"Variant": "TSVRRALFTQGSD [G10Q]", "normalised enrichment score": 1.01}
{"Variant": "TSVRRALFYGGSD [T9Y]", "normalised enrichment score": 0.914}
{"data": "Sample 2", "target": "HLA class I histocompatibility antigen, A alpha chain, allele A*80:01 (Homo sapiens, UniProt P04439)", "observed": "peptide-MHC binding", "molecule type": "peptide", "tested at": "concentration not given"}
{"Molecule": "SQFNHWFGE", "binding": "inactive"}
{"Molecule": "KLHCTERSL", "binding": "inactive"}
{"Molecule": "DEMVCKWLL", "binding": "inactive"}
{"Molecule": "IQKGMFVVK", "binding": "inactive"}
{"Molecule": "YSDNEMLTH", "binding": "inactive"}
{"Molecule": "HSRRSRRSL", "binding": "inactive"}
{"Molecule": "HPYVFCALL", "binding": "inactive"}
{"Molecule": "DWMDRIEEF", "binding": "inactive"}
{"data": "Mixed results"}
{"SMILES": "CCn1cnc2c(Nc3cccc(Cl)c3)nc(N[C@H]3CCCC[C@H]3N)nc21", "target": "PRKACA (Homo sapiens, UniProt P17612)", "assay": "enzyme activity, inhibitor", "conditions": "0.5 µM", "how to read": "reference: control", "endpoint": "remaining activity", "value": "102%"}
{"SMILES": "CNCc1ccccc1-c1csc([C@@H](C)Nc2nc(C)nc3cc(OC)c(OC)cc23)c1", "target": "OPRK1 (Homo sapiens, UniProt P41145)", "assay": "cell-free assay", "conditions": "10 µM", "endpoint": "inhibition", "value": "26.9%"}
{"note": "Repeated from above (sample 2):"}
{"Molecule": "IQKGMFVVK", "binding": "inactive"}
